Published values pooled from the literature.
Lines come from different studies, so protocols differ. ± gives the spread as reported.

assay | system | setting | tissue uptake | SMILES
– | C57 mice with B16/F1 melanoma, spleen | intravenous, 0.037 MBq, 24 h | 0.22 ± 0.07 %ID/g | CCCC[C@@H]1NC(=O)[C@@H](NC(=O)[C@H](CCC(=O)O)NC(=O)CNC(=O)CN2CCN(CC(=O)O)CCN(CC(=O)O)CCN(CC(=O)O)CC2)CCCCNC(=O)C[C@@H](C(N)=O)NC(=O)[C@H](C(C)C)NC(=O)[C@@H]2CCCN2C(=O)[C@H](CCCNC(=N)N)NC(=O)CNC(=O)[C@H](Cc2c[nH]c3ccccc23)NC(=O)[C@H](CCCNC(=N)N)NC(=O)[C@@H](Cc2ccccc2)NC(=O)[C@H](Cc2c[nH]cn2)NC(=O)[C@H](CCC(=O)O)NC1=O [gallium-67 labelled]
– | male C57BL/6J mice, B16-F10 tumours, fat | intravenous, 1 h, blocking study, with: 100 µg non-radioactive Ga-peptide | 0.5 ± 0.4 %ID/g | CCCC[C@H](NC(=O)CN1CCC(NC(=O)CN2CCN(CC(=O)O)CCN(CC(=O)O)CCN(CC(=O)O)CC2)CC1)C(=O)N[C@H]1CC(=O)NCCCC[C@@H](C(N)=O)NC(=O)[C@H](Cc2c[nH]c3ccccc23)NC(=O)[C@H](CCCNC(=N)N)NC(=O)[C@@H](Cc2ccccc2)NC(=O)[C@H](Cc2c[nH]cn2)NC1=O [gallium-68 labelled]
– | C57 mouse, blood | intravenous, 0.056 MBq, 24 h | 0.3 ± 0.05 %ID/g | CCCC[C@H](NC(=O)CNC(=O)CNC(=O)CN1CCN(CC(=O)O)CCN(CC(=O)O)CCN(CC(=O)O)CC1)C(=O)N[C@H]1CC(=O)NCCCC[C@@H](C(N)=O)NC(=O)[C@H](Cc2c[nH]c3ccccc23)NC(=O)[C@H](CCCNC(=N)N)NC(=O)[C@@H](Cc2ccccc2)NC(=O)[C@H](Cc2c[nH]cn2)NC1=O [lead-203 labelled]
– | C57 mouse, female, B16/F1 melanoma, pancreas | intravenous, 0.037 MBq, 4 h | 0.2 ± 0.07 %ID/g | CC(C)[C@H](NC(=O)[C@@H]1CCCN1C(=O)[C@H](CCCNC(=N)N)NC(=O)[C@H](CS)NC(=O)[C@H](Cc1c[nH]c2ccccc12)NC(=O)[C@H](CCCNC(=N)N)NC(=O)[C@@H](Cc1ccccc1)NC(=O)[C@H](Cc1c[nH]cn1)NC(=O)[C@H](CCC(=O)O)NC(=O)[C@H](CS)NC(=O)[C@H](CS)NC(=O)[C@@H]1CC(=O)N[C@@H](CCCNC(=N)N)C(=O)NCC(=O)N[C@@H](CC(=O)O)C(=O)N[C@H](Cc2ccc(O)cc2)C(=O)N1)C(N)=O [technetium-99m labelled]
– | male Sprague-Dawley rat, pancreas | intravenous, 60 min | 0.298 ± 0.089 %ID/g | O=C(O)C1CN(Cc2ccc(-c3noc(-c4ccc(OCC[18F])c(C(F)(F)F)c4)n3)cc2)C1
– | C57 mouse, female, B16/F1 melanoma, brain | intravenous, 0.037 MBq, 4 h | 0.05 ± 0.03 %ID/g | CC(C)[C@H](NC(=O)[C@@H]1CCCN1C(=O)[C@H](CCCNC(=N)N)NC(=O)[C@H](CS)NC(=O)[C@H](Cc1c[nH]c2ccccc12)NC(=O)[C@H](CCCNC(=N)N)NC(=O)[C@@H](Cc1ccccc1)NC(=O)[C@H](Cc1c[nH]cn1)NC(=O)[C@H](CCC(=O)O)NC(=O)[C@H](CS)NC(=O)[C@H](CS)NC(=O)CNC(=O)[C@@H]1CC(=O)N[C@@H](CCCNC(=N)N)C(=O)NCC(=O)N[C@@H](CC(=O)O)C(=O)N[C@H](Cc2ccc(O)cc2)C(=O)N1)C(N)=O [technetium-99m labelled]
– | female C57 mouse, B16/F1 melanoma, liver | intravenous, 0.037 MBq, 24 h | 0.53 ± 0.07 %ID/g | CCCC[C@H](NC(=O)CNC(=O)CNC(=O)CN1CCN(CC(=O)O)CCN(CC(=O)O)CC1)C(=O)N[C@H]1CC(=O)NCCCC[C@@H](C(N)=O)NC(=O)[C@H](Cc2c[nH]c3ccccc23)NC(=O)[C@H](CCCNC(=N)N)NC(=O)[C@@H](Cc2ccccc2)NC(=O)[C@H](Cc2c[nH]cn2)NC1=O [copper-64 labelled]
– | ICR mouse, spleen | intravenous, 2 min | 8.38 ± 1.84 %ID/g | CN(C)c1ccc(-c2nc3ccc(OCCCCCN4CCN5CCN(CC4)CC(=O)[O][Al]([18F])[O]C(=O)C5)cc3s2)cc1
item: 177Lu radioactivity | female CB-17 SCID mice, Daudi xenograft, brain | intravenous, 0.16 nmol per mouse, 96 h | 0.006 ± 0.001 %ID/g | CN1C(=O)[C@@H](Cc2ccc(O)c(I)c2)NC(=O)CNC(=O)[C@H](Cc2ccc3ccccc3c2)NC(=O)[C@H](CCCNC(=N)N)NC(=O)[C@H]1CCCNC(=O)c1ccc(CNC(=O)CN2CCN(CC(=O)O)CCN(CC(=O)O)CCN(CC(=O)O)CC2)cc1 [lutetium-177 labelled]
– | female Lewis rat, muscle | intravenous, 120 min | 0.47 ± 0.02 %ID/g | OCc1cn(Cc2ccc(-c3noc(-c4ccc(OCC[18F])c(C(F)(F)F)c4)n3)cc2)nn1
– | mouse, Hec50 endometrial tumour, stomach | 0.5 h post injection | 6.8 ± 0.99 %ID/g | O=C([O-])CN1CCN(CC(=O)[O-])CCN(CC(=O)NCCc2ccc3c(c2)C2C=CCC2C(c2cc4c(cc2Br)OCO4)N3)CCN(CC(=O)[O-])CC1.[111In+3] (stereo not shown)
– | female C57 mouse, B16/F1 melanoma, blood | intravenous, 0.037 MBq, 0.5 h | 2.33 ± 0.54 %ID/g | CCCC[C@H](NC(=O)CNC(=O)CNC(=O)CN1CCN(CC(=O)O)CCN(CC(=O)O)CCN(CC(=O)O)CC1)C(=O)N[C@H]1CC(=O)NCCCC[C@@H](C(N)=O)NC(=O)[C@H](Cc2c[nH]c3ccccc23)NC(=O)[C@H](CCCNC(=N)N)NC(=O)[C@@H](Cc2ccccc2)NC(=O)[C@H](Cc2c[nH]cn2)NC1=O [copper-64 labelled]
– | female C57 mice, B16/F1 melanoma, skin | intravenous, 0.037 MBq, 24 h | 0.96 ± 0.24 %ID/g | CCCC[C@H](NC(=O)CNC(=O)CNC(=O)CN1CCN(CC(=O)O)CCN(CC(=O)O)CC1)C(=O)N[C@H]1CC(=O)NCCCC[C@@H](C(N)=O)NC(=O)[C@H](Cc2c[nH]c3ccccc23)NC(=O)[C@H](CCCNC(=N)N)NC(=O)[C@@H](Cc2ccccc2)NC(=O)[C@H](Cc2c[nH]cn2)NC1=O [gallium-67 labelled]

Repeated from above:
assay | system | setting | tissue uptake | SMILES
– | C57 mice with B16/F1 melanoma, spleen | intravenous, 0.037 MBq, 24 h | 0.22 ± 0.07 %ID/g | CCCC[C@@H]1NC(=O)[C@@H](NC(=O)[C@H](CCC(=O)O)NC(=O)CNC(=O)CN2CCN(CC(=O)O)CCN(CC(=O)O)CCN(CC(=O)O)CC2)CCCCNC(=O)C[C@@H](C(N)=O)NC(=O)[C@H](C(C)C)NC(=O)[C@@H]2CCCN2C(=O)[C@H](CCCNC(=N)N)NC(=O)CNC(=O)[C@H](Cc2c[nH]c3ccccc23)NC(=O)[C@H](CCCNC(=N)N)NC(=O)[C@@H](Cc2ccccc2)NC(=O)[C@H](Cc2c[nH]cn2)NC(=O)[C@H](CCC(=O)O)NC1=O [gallium-67 labelled]
